Measured values pooled from the literature.
Compare with care: the assays were run in different laboratories. “And” joins repeats or separate records; there may be more than shown.
GSK3B: Glycogen synthase kinase-3 beta (GSK3B, Homo sapiens, UniProt P49841)
UniProt P49841, sequence (whole entry, looked up): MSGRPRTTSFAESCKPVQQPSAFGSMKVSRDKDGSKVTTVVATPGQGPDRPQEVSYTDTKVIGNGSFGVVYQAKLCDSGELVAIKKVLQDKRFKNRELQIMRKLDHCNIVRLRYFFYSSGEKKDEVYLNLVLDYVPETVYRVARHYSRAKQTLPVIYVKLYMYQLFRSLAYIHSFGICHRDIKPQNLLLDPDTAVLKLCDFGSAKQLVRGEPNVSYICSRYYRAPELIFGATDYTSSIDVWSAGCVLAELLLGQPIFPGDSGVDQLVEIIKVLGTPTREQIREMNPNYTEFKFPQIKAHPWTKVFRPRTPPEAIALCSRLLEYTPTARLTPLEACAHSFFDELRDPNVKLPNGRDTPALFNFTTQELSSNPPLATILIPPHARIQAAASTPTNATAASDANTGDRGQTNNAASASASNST
CTSL: Procathepsin L (CTSL, Homo sapiens, UniProt P07711)
UniProt P07711, sequence (whole entry, looked up): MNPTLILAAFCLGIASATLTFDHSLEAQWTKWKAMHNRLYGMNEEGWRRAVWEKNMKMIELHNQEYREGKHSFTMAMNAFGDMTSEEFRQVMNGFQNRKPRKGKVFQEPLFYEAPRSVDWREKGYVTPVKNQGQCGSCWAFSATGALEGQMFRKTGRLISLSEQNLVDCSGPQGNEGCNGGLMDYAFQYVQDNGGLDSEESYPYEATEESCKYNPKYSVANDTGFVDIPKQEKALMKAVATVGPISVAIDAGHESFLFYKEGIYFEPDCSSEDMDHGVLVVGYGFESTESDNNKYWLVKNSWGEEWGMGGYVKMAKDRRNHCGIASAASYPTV
DRD3: D(3) dopamine receptor (DRD3, Homo sapiens, UniProt P35462)
UniProt P35462, sequence (whole entry, looked up): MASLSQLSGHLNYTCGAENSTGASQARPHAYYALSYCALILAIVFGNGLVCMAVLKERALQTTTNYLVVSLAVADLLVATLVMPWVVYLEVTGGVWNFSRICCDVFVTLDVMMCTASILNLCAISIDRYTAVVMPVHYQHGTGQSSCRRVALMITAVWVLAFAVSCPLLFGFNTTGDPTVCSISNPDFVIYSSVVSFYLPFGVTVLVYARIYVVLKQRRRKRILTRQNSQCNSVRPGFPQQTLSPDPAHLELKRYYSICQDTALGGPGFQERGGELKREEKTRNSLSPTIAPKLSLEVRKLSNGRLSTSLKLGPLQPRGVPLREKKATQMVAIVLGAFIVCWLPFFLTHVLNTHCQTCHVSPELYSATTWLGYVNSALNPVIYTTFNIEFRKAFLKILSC
UniProt P29597, sequence (whole entry, looked up): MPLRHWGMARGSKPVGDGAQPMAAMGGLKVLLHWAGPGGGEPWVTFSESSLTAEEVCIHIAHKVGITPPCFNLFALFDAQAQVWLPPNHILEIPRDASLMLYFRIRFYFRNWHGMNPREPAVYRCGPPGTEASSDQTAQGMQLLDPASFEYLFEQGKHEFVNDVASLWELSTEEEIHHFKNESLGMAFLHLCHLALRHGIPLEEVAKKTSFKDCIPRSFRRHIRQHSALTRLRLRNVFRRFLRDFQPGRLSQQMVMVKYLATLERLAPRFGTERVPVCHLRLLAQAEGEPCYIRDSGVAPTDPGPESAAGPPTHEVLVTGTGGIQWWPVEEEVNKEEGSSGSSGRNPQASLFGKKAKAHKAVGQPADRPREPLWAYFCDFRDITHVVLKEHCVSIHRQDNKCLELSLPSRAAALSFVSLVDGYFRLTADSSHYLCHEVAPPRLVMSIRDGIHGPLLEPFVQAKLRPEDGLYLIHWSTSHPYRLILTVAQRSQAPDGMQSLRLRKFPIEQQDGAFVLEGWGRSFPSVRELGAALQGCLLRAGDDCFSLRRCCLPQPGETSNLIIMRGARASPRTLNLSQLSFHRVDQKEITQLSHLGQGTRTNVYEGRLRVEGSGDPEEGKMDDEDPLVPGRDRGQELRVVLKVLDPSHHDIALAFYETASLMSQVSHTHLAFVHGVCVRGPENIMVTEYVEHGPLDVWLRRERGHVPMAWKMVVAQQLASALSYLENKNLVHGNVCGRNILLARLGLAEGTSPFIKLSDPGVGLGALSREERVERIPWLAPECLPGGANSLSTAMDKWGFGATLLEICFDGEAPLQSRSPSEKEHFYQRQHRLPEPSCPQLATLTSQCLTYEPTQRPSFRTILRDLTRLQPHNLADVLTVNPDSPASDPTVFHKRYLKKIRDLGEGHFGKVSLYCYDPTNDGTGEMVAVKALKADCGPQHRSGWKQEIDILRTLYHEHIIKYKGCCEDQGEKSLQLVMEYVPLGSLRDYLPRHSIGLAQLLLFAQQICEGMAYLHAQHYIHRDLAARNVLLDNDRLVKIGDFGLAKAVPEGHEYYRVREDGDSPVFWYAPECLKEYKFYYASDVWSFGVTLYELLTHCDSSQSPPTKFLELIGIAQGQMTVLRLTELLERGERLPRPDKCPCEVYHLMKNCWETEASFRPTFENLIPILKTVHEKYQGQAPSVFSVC
UniProt P49840, sequence (whole entry, looked up): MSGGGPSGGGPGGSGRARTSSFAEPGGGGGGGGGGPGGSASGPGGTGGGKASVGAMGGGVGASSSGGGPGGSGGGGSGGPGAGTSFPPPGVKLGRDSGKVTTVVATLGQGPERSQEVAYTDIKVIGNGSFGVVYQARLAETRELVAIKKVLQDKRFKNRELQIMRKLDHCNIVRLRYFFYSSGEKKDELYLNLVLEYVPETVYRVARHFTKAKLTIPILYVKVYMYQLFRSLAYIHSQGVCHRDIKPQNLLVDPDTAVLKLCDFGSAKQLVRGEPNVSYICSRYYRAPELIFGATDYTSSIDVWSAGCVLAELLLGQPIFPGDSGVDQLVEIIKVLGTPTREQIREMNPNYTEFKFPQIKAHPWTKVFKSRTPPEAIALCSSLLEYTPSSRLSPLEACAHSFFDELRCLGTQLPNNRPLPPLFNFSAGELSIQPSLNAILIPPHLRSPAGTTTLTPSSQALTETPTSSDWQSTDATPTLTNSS
UniProt P61075, sequence (whole entry, looked up): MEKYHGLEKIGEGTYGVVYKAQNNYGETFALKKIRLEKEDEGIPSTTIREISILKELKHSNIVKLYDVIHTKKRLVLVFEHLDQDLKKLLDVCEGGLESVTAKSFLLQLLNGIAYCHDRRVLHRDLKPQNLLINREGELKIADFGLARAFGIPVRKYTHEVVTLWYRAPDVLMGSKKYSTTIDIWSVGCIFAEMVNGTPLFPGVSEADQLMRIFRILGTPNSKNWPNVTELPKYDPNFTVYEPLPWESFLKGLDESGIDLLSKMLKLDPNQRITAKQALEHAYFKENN
UniProt Q08881, sequence (whole entry, looked up): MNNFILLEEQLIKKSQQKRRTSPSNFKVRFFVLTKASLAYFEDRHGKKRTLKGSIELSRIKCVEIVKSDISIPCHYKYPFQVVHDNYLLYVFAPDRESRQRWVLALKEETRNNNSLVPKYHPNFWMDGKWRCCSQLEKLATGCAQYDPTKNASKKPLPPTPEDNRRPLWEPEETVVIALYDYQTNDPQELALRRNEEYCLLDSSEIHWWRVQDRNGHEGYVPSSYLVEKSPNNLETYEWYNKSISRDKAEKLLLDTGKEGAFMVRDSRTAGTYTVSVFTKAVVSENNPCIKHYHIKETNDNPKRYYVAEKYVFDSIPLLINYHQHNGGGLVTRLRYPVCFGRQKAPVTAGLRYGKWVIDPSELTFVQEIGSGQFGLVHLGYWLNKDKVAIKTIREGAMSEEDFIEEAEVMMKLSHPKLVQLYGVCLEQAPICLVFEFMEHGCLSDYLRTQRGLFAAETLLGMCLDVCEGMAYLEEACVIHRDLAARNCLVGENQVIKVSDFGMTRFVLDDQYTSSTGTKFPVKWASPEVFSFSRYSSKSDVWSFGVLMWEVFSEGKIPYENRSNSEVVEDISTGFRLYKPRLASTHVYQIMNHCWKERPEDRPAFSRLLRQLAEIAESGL
UniProt P05164, sequence (whole entry, looked up): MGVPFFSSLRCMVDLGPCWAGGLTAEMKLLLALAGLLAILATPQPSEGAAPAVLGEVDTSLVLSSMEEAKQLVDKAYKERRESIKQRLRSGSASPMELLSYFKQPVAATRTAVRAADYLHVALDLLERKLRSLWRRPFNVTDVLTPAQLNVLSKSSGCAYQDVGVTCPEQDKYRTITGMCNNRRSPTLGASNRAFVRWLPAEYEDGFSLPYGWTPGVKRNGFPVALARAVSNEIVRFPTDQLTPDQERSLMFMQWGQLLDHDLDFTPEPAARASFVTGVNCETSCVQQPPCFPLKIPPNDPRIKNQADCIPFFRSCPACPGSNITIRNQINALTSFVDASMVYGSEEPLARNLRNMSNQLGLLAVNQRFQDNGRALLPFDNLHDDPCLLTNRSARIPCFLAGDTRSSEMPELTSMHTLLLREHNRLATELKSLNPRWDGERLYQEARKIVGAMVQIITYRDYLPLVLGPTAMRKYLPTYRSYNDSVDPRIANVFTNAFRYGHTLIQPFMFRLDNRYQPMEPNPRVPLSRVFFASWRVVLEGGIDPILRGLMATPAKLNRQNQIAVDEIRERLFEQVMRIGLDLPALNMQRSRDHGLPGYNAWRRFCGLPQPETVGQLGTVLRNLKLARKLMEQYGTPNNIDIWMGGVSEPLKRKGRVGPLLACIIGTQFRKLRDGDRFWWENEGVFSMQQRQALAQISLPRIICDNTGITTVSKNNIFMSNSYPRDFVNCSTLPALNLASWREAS

Compound = FC(F)(F)Oc1cccc(-c2cnc3ccc(-c4ccncc4)nn23)c1; tested on = TESK1 (Homo sapiens, UniProt Q15569); test = enzyme activity, inhibitor, radiometric; conditions = 1 µM; measurement = activity vs control; result = 24%
Compound = Cc1cc([C@@H](C)Nc2ccccc2C(=O)O)c2nc(N3CCC(F)(F)CC3)c(C#N)c(=O)n2c1; tested on = GSK3B; test = binding, competition with immobilised ligand; conditions = 1 µM; measurement = remaining binding; result = 100%
Compound = Cc1cccc(N(O)N=Nc2ccc(S(=O)(=O)Nc3nccs3)cc2)c1; test = ABTS scavenging; conditions = 300 µg/mL; measurement = inhibition; result = 96.4%
Compound = NC/C(=C\F)COc1cccc(Cn2c(=S)[nH]c(=O)c3[nH]cnc32)c1; tested on = Myeloperoxidase (MPO, Homo sapiens, UniProt P05164); test = enzyme activity, inhibitor, fluorescence; conditions = 1.667 µM; measurement = inhibition; result = 98.6%
Compound = Cc1ccc(N(O)N=Nc2ccc(S(=O)(=O)Nc3onc(C)c3C)cc2)cc1; test = ABTS scavenging; conditions = 240 µg/mL; measurement = inhibition; result = 98.1%
Compound = C=CC(=O)N1CCC(COCC(=O)N2CCN(c3nc(-c4cnc(N)nc4C(F)F)nc(N4CCOC[C@@H]4C)n3)CC2)CC1; tested on = LIM domain kinase 1 (LIMK1, Homo sapiens, UniProt P53667); test = binding, competition with immobilised ligand; conditions = 1 µM; measurement = remaining binding; result = 98%
Compound = NCc1ccc(O)cc1; tested on = CTSL; test = enzyme activity, inhibitor; conditions = 100 µM; measurement = remaining activity; result = 110%
Compound = C1=C/COCc2cc(ccc2OCCN2CCCC2)Nc2nccc(n2)-c2cccc(c2)COC/1; tested on = EGFR (Homo sapiens, UniProt P00533, del747-750/T751S); test = binding; conditions = 0.1 µM; measurement = remaining binding; result = 88%
Compound = Nc1ccn([C@@H]2O[C@H](CO)[C@@H](O)C2(F)F)c(=O)n1; tested on = MDA-MB-231; test = cell growth or viability, MTT; conditions = 10 µg/mL, 24 h; measurement = viability; result = 42.7%
Compound = COc1cccc(-c2cc(C(C)=O)n3ccccc23)c1; tested on = BRD9 (Homo sapiens, UniProt Q9H8M2); test = thermal stability, DSF; conditions = 200 µM; measurement = ΔTm; result = 6 °C
Compound = COc1cccc(-c2n[nH]c(SCc3ccccn3)n2)c1OC; test system = female Sprague-Dawley rat, plasma; conditions = oral, 100 mg/kg, 2 h, single dose; measurement = concentration; result = 34400 ng/mL
Compound = O=c1nc(N2CCN(CC3CCCCC3)CC2)sc2c([N+](=O)[O-])cc(C(F)(F)F)cc12; test system = CD-1 mouse, lung; conditions = oral, 100 mg/kg, 8 h; measurement = concentration; result = 396 ng/mL
Compound = CCCCC(=O)Nc1ccc(-c2ccc3ncn(CCC)c(=O)c3c2)cn1; tested on = ITK (Homo sapiens, UniProt Q08881); test = binding, competition with immobilised ligand; conditions = 0.5 µM; measurement = remaining binding; result = 100%
Compound = O=C1OC(C(O)CO)C(=O)C1=O (stereo not drawn); tested on = CTSL; test = enzyme activity, inhibitor; conditions = 100 µM; measurement = remaining activity; result = 100%
Compound = CNc1ncc2c(/C=C/C(=O)N3CCC(OC)CC3)nn(Cc3cccc(C(F)(F)F)c3)c2n1; tested on = GSK3A (Homo sapiens, UniProt P49840); test = enzyme activity, inhibitor, radiometric; conditions = 1 µM; measurement = remaining activity; result = 106%
Compound = O=C1CC[C@H](N2Cc3cc(N4CCN(CC5CCN(c6ccc([C@@H]7c8ccc(O)cc8CC[C@@H]7c7ccccc7)cc6)CC5)CC4)ccc3C2=O)C(=O)N1; test system = male Sprague-Dawley rat, plasma; conditions = oral, 20 mg/kg, fed; measurement = half-life; result = 4.62 h
Compound = Nc1ncnc2occ(-c3ccc(NC(=O)Nc4cc(C(F)(F)F)ccc4F)cc3)c12; tested on = Tyrosine-protein kinase ABL1, phosphorylated (ABL1, Homo sapiens, UniProt P00519, H396P); test = cell-free assay, inhibitor; conditions = 20 µM; measurement = remaining signal; result = 0.4%
Compound = Cc1coc2c1C(=O)C(=O)c1c-2ccc2c(C)cccc12; tested on = CTSL; test = enzyme activity, inhibitor; conditions = 100 µM; measurement = remaining activity; result = 96.1%
Compound = Cc1[nH]c(C)c(S(=O)(=O)Nc2ccc(C(F)(F)F)c3ncccc23)c1C(=O)N1CCC(F)(F)C1; tested on = DRD3; test = β-arrestin recruitment, agonist; conditions = 90 min; measurement = Emax; result = 87%
Compound = c1cnn2ncc(-c3ccnc(N4CCC45COC5)n3)c2c1; tested on = CRK2 (Plasmodium falciparum, UniProt P61075); test = cell-free assay; conditions = 1 µM; measurement = remaining signal; result = 72%
Compound = CC[C@@H](C)[C@@H]1NC(=O)[C@H](Cc2ccc(O)cc2)NC(=O)[C@@H](N)CSSC[C@@H](C(=O)N2CCC[C@H]2C(=O)N[C@@H](CCCN=C(N)N)C(=O)NCC(N)=O)NC(=O)[C@H](CC(N)=O)NC(=O)[C@H](CCC(N)=O)NC1=O; tested on = CTSL; test = enzyme activity, inhibitor; conditions = 100 µM; measurement = remaining activity; result = 81.6%
Compound = Cc1ccc(C(=O)Nc2ccc(CN3CCN(C)CC3)c(C(F)(F)F)c2)cc1C#Cc1cnc2cccnn12; tested on = TYK2 (Homo sapiens, UniProt P29597); test = enzyme activity, inhibitor; conditions = 23.5 nM; measurement = activity vs control; result = 80% and 58%
Compound = COc1cc(-c2cncc3c2CN(C)Cc2cc(N4CCNCC4)ccc2-3)cc(OC)c1OC; tested on = CDC42BPB (Homo sapiens, UniProt Q9Y5S2); test = enzyme activity, inhibitor; conditions = 1 µM; measurement = remaining activity; result = 109%
Compound = OCCc1c[nH]c2ccccc12; tested on = CTSL; test = enzyme activity, inhibitor; conditions = 100 µM; measurement = remaining activity; result = 102%
Compound = CCc1ccc(NS(=O)(=O)c2c(C)[nH]c(C)c2C(=O)N2CCC(F)(F)C2)cc1Cl; tested on = DRD3; test = β-arrestin recruitment, agonist; conditions = 90 min; measurement = Emax; result = 94%
Compound = COc1cc(O)c(CC=C(C)C)c(O)c1C(=O)C=Cc1ccc(O)cc1; tested on = CTSL; test = enzyme activity, inhibitor; conditions = 100 µM; measurement = remaining activity; result = 6.44%
Compound = CC[C@H](C)[C@H](NC(=O)[C@H](CCC(N)=O)NC(=O)[C@@H](NC(=O)[C@H](CCSC)NC(=O)[C@H](CCCCN)NC(=O)[C@H](CO)NC(=O)[C@@H](NC(=O)[C@H](CCSC)NC(=O)[C@H](CC(C)C)NC(=O)[C@H](CC(N)=O)NC(=O)[C@@H](NC(=O)[C@@H](NC(=O)[C@H](CO)NC(=O)[C@H](CC(C)C)NC(=O)[C@H](C)NC(=O)[C@H](CCCNC(=N)N)NC(=O)[C@H](CCC(=O)O)NC(=O)[C@H](Cc1ccc(O)cc1)NC(=O)[C@H](Cc1ccccc1)NC(=O)[C@H](C)NC(=O)[C@H](CC(N)=O)NC(=O)[C@@H](N)CCCCN)[C@@H](C)CC)[C@@H](C)CC)[C@@H](C)O)C(C)C)C(=O)N[C@@H](CC(N)=O)C(=O)N[C@H](C(=O)O)C(C)C; tested on = GSK3B; test = enzyme activity, inhibitor, radiometric; conditions = 500 µM, 20 min; measurement = remaining activity; result = 140%

A few entries again:
Compound = Nc1ncnc2occ(-c3ccc(NC(=O)Nc4cc(C(F)(F)F)ccc4F)cc3)c12; tested on = Tyrosine-protein kinase ABL1, phosphorylated (ABL1, Homo sapiens, UniProt P00519, H396P); test = cell-free assay, inhibitor; conditions = 20 µM; measurement = remaining signal; result = 0.4%
Compound = Nc1ccn([C@@H]2O[C@H](CO)[C@@H](O)C2(F)F)c(=O)n1; tested on = MDA-MB-231; test = cell growth or viability, MTT; conditions = 10 µg/mL, 24 h; measurement = viability; result = 42.7%
Compound = COc1cccc(-c2n[nH]c(SCc3ccccn3)n2)c1OC; test system = female Sprague-Dawley rat, plasma; conditions = oral, 100 mg/kg, 2 h, single dose; measurement = concentration; result = 34400 ng/mL
